# Measurements of several laboratories.
# Lines come from different studies, so protocols differ. Several values in a cell are separate wells, animals, samples, runs or records. Numbers after ± are the reported error.
# Sequence of UniProt O00425 (whole entry, looked up): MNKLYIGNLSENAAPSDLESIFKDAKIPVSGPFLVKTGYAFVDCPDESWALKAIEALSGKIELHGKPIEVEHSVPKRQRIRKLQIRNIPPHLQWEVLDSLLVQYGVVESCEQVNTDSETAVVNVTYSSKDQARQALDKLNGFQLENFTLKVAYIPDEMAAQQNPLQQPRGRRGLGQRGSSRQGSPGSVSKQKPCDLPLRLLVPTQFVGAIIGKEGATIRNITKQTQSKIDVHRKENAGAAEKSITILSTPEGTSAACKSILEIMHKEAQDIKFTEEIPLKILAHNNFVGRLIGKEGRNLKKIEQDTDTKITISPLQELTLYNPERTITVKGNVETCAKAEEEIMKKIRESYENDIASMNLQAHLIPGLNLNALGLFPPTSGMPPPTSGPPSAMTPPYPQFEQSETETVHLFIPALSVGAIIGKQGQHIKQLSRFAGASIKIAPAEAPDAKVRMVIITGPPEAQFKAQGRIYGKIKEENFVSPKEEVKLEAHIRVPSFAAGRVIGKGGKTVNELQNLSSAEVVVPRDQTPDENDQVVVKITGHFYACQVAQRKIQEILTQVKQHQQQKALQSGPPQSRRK
SMILES,target or system,assay,system,setting,scale,endpoint,value
C=CCCCn1c(O)c(N=NC(=O)c2ccccc2)c2ccccc21,,,C57BL/6 mice trained on THC,"intraperitoneal, 10 mg/kg, THC 5.6 mg/kg discrimination",baseline: vehicle,response rate,increased
C=CCNc1c(O)cc2c(O)c1C[C@@H](C)C[C@H](OC)[C@H](O)[C@@H](C)/C=C(\C)[C@H](OC(N)=O)[C@@H](OC)/C=C\C=C(/C)C(=O)N2,,18F-FDG PET EORTC criteria,human GIST,"concentration not given, best response",,patients with metabolic progression,7%
CCCCC1(CCCC)CN(c2ccccc2)c2cc(SC)c(OCC(=O)N[C@@H](C(=O)NCC(=O)O)c3ccccc3)cc2S(=O)(=O)C1,,refers to: LDL cholesterol,"human, serum","20 mg once daily, day 5",,serum LDL-C,82.9 mg/dL
CSCC[C@H](NC(=O)[C@@H](N)Cc1ccc(O)cc1)C(=O)N[C@@H](Cc1ccccc1)C(=O)N[C@@H](CO)C(=O)N1CCC[C@H]1C(=O)N[C@H](C(=O)N[C@@H](Cc1c[nH]cn1)C(=O)N[C@@H](CCC(N)=O)C(=O)N[C@@H](Cc1ccccc1)C(=O)O)[C@@H](C)O,"HLA class I histocompatibility antigen, A alpha chain, allele A*02:01 (Homo sapiens, UniProt P04439)",binding,,,,IC50,1.47 µM
C[C@H]1O[C@@H](O[C@H]2CC[C@@]3(C)[C@@H](CC[C@]4(C)[C@@H]3C=C[C@]35OC[C@@]6(CCC(C)(C)C[C@H]63)[C@@H](O)C[C@]54C)[C@]2(C)CO)[C@H](O)[C@@H](O[C@@H]2O[C@H](CO)[C@@H](O)[C@H](O)[C@H]2O)[C@H]1O,,,"Mus musculus, pair-fed, AAV8-TBG-Null vector","oral, high dose, during administration",,body weight change,2.3 g and 1.7 g and 1.4 g and 1.3 g and 2.5 g and 1.1 g
C[C@]1(CO)Cc2ncn(-c3ccc(C#N)c(Cl)c3)c2C(=O)O1,,,Chinese subjects,80 mg single dose,,urinary potassium excretion 0-24 h,32.4 mmol
Cc1ncc(OC[C@@]2(c3cccc(F)c3)C[C@H]2C(=O)Nc2ccc(F)cn2)c(C)n1,MDCK,,,"1 µM, 90 min, pH 7.4 apical, 7.4 basolateral, basolateral to apical",,mass recovery,88 ± 10%
C=CC(=O)Nc1cc(Nc2ncc(Cl)c(Nc3ccccc3C(=O)C(=O)N(C)C)n2)c(OC)cc1N1CCN(C)CC1,,RECIST v1.1 best response,human EGFR T790M NSCLC,"oral, 100 mg/day, per-protocol set",,patients with complete response,0%
COc1cc2c(Oc3ccc4[nH]c(C)cc4c3F)ccnc2cc1OCC1(N)CC1,,,paediatric recurrent refractory sarcoma,"concentration not given, whole group",,grade 1 or 2 Proteinuria,14.7%
[Cl][Ru-]([Cl])([Cl])[Cl].[Na+].c1ccc2[nH]ncc2c1.c1ccc2[nH]ncc2c1,,"CT, RECIST 1.1",human,320 mg/m2,baseline: baseline,maximum change in target lesions,-30%
CN1CCN(S(=O)(=O)c2cc([N+](=O)[O-])ccc2N(CCOS(C)(=O)=O)CCOS(C)(=O)=O)CC1,,,"NSG mice, sample CI PDX","intraperitoneal, 25 mg/kg weekly x3",baseline: vehicle,EFS delay (T-C),> 348 days
CSCC[C@H](NC(=O)[C@@H](N)CCCNC(=N)N)C(=O)N[C@@H](Cc1c[nH]c2ccccc12)C(=O)N[C@@H](CO)C(=O)N[C@@H](CCCCN)C(=O)N1CCC[C@H]1C(=O)N[C@@H](CC(C)C)C(=O)N[C@@H](CCC(N)=O)C(=O)N[C@@H](Cc1ccccc1)C(=O)O,"HLA class I histocompatibility antigen, A alpha chain, allele A*24:02 (Homo sapiens, UniProt P04439)",binding,,,,IC50,0.896 µM
CC[C@H](C)[C@@H]1NC(=O)[C@@H]2CCCN2C(=O)[C@H](CC(C)C)NC(=O)[C@H](CC(C)C)NC(=O)CNC(=O)[C@@H](NC(=O)[C@@H](NC(=O)[C@H](CC(=O)O)NC(=O)CNC(=O)[C@@H](NC(=O)[C@H](C)NC(=O)CNC(=O)[C@H](CCCCN)NC(=O)[C@H](CC(C)C)NC(=O)[C@H](CC(C)C)NC(=O)[C@H](CCCCN)NC(=O)CNC(=O)[C@@H](NC(=O)[C@@H](N)CC(C)C)C(C)C)C(C)C)C(C)C)CSSC[C@@H](C(=O)O)NC1=O,,"RNA-seq, refers to: Dclre1a","mouse, traumatic brain injury model, frontal cortex and hippocampus",dose not given,baseline: TBI alone,log2 fold change,0.617
CC[C@H](C)C[C@H](C)CCCCCCCCC(=O)N[C@H]1C[C@@H](O)[C@@H](NCCN)NC(=O)[C@@H]2[C@@H](O)CCN2C(=O)[C@H]([C@H](O)CCN)NC(=O)[C@H]([C@H](O)[C@@H](O)c2ccc(O)cc2)NC(=O)[C@@H]2C[C@@H](O)CN2C(=O)[C@H]([C@@H](C)O)NC1=O,,calcein leakage,DOPC/DOPG/CHOL liposomes,"concentration not given, together with: 20 wt% PEG-8000",,maximum fusion,20 ± 4%
O=C1OC[C@@H](O)[C@H]1O,,"binding, equilibrium dialysis LC-MS",,"5 µM, thermostabilized A2AR-BRIL construct","baseline: no-protein control, direction not given",z-scored log2 fold change,1.15
C[C@H](NC(=O)c1c(C(F)F)nn(C)c1Oc1cccc(C(F)(F)F)c1)c1ccc(C(=O)O)cc1,,,"human, advanced tumours",250 mg,,median progression-free survival,1.4 months
C[C@@H](O)[C@H](NC(=O)[C@@H]1CSSC[C@H](NC(=O)[C@@H](Cc2ccccc2)NC(=O)CN2CCN(CC(=O)[O-])CCN(CC(=O)[O-])CCN(CC(=O)[O-])CC2)C(=O)N[C@@H](Cc2ccc(O)cc2)C(=O)N[C@H](Cc2c[nH]c3ccccc23)C(=O)N[C@@H](CCCCN)C(=O)N[C@@H]([C@@H](C)O)C(=O)N1)C(=O)O.[177Lu+3],MEC1 treated with 200 µM zebularine,gamma counter,,60 min efflux after 2 h loading,,retention,36.1%
C/C=C1\NC(=O)C(C(C)O)NC(=O)C(CCCN)NC(=O)C(CCO)NC(=O)C(CCN)NC(=O)C(CCN)NC(=O)C(NC(=O)CC(O)CCCCCCCCCCC)COC(=O)C(C(O)CCl)NC(=O)C(C(O)C(=O)O)NC1=O (centres unmarked),,calcein leakage,DOPC/DOPG/CHOL liposomes,"concentration not given, together with: 40 mM CaCl2",,maximum fusion,75 ± 1%
CC(=O)c1c(C)c2cnc(Nc3ccc(C4CCN(CCS(C)(=O)=O)CC4)cn3)nc2n(C2CCCC2)c1=O,,tumour growth,"mouse, MDA-MB-435S xenograft","oral, 80 mg/kg twice daily, 25 days",,T/C,15%
[131I-].[Na+],,radioiodine ablation,human hyperthyroidism patients,"185 MBq, 2 years, long-term follow-up",,hypothyroid patients,62.6%
Cc1nc(Nc2ccc(CC(=O)O)cc2)nc(Nc2ccc(F)c(C(F)(F)F)c2)c1C,,,"mice, chronic ethanol plus binge","intraperitoneal, 0.3 mg/kg daily, ethanol diet 4 weeks, dosed last two",baseline: vehicle,serum ALT,decreased
CO[C@H]1C[C@@H]2CC[C@@H](C)[C@@](O)(O2)C(=O)C(=O)N2CCCC[C@H]2C(=O)O[C@H]([C@H](C)C[C@@H]2CC[C@@H](OC(=O)NCCOCCOCCOCCOCCOCCOCCOCCOCCC(=O)N3CCc4cc(Cn5nc(-c6ccc7oc(N)nc7c6)c6c(N)ncnc65)ccc4C3)[C@H](OC)C2)C[C@@H](O)[C@H](C)/C=C(\C)[C@@H](O)[C@@H](OC)C(=O)[C@H](C)C[C@H](C)/C=C/C=C/C=C/1C,,"phase 1 dose escalation, refers to: rash",advanced solid tumour patients,"intravenous, 8 mg weekly, grade ≥3",,TRAE incidence,6.3%
CS(=O)(=O)c1ccc(-c2nnc(/C=C/c3nnc(-c4ccc(C#N)cc4)o3)n2-c2ccccc2Cl)nc1,,"RNA-seq GSEA, refers to: HALLMARK_FATTY_ACID_METABOLISM","organoids, small intestinal, Apc Q1405X, mouse","dose not given, 3 days, wild-type organoids","baseline: DMSO, direction not given",normalized enrichment score,1.84
NCCc1ccccc1,,"binding, equilibrium dialysis LC-MS",,"5 µM, thermostabilized A2AR-BRIL construct","baseline: no-protein control, direction not given",z-scored log2 fold change,0.871
C[C@H]1CN(c2n[nH]c3nc(N[C@H]4CC[C@H](NS(=O)(=O)CCC(F)(F)F)CC4)ncc23)CCO1,"IGF2BP3 (Homo sapiens, UniProt O00425)","inhibitor, Kinobeads competition profiling",,20 µM,baseline: vehicle,relative abundance,1.13
CC(C)C[C@H](NC(=O)C[C@H](O)[C@H](CC(C)C)NC(=O)[C@H](Cc1c[nH]cn1)NC(=O)CNC(=O)[C@@H](NC(=O)[C@H](C)NC(=O)[C@H](Cc1c[nH]c2ccccc12)NC(=O)[C@H](CCC(N)=O)NC(=O)[C@@H](Cc1ccccc1)NC(=O)CCNC(=O)CCSc1nnc(NCCC(=O)NCCC(=O)NCCCC[C@H](NC(=O)N[C@@H](CCC(=O)O)C(=O)O)C(=O)O)c2c1CCC1C(CC2)C1COC(=O)NCCNC(=O)CC[C@H](C(=O)O)N1CCN(CC(=O)O)CCN(CC(=O)O)CC1)C(C)C)C(N)=O (some centres unmarked) [gallium-68 labelled],,,"athymic NMRI nude mouse, stomach","intravenous, dose not given, 2 h, together with: bombesin 480 nmol (GRPR blocking)",,tissue uptake,0.07 %ID/g

# Some of these lines once more:
SMILES,target or system,assay,system,setting,scale,endpoint,value
CC(=O)c1c(C)c2cnc(Nc3ccc(C4CCN(CCS(C)(=O)=O)CC4)cn3)nc2n(C2CCCC2)c1=O,,tumour growth,"mouse, MDA-MB-435S xenograft","oral, 80 mg/kg twice daily, 25 days",,T/C,15%
[131I-].[Na+],,radioiodine ablation,human hyperthyroidism patients,"185 MBq, 2 years, long-term follow-up",,hypothyroid patients,62.6%
